Assay results pooled from the literature.
Compare with care: the assays were run in different laboratories. “And” joins repeats or separate records; there may be more than shown. Numbers after ± are the reported error. ≈ marks a conversion by molar mass, not a printed value.
HDAC6 ZnF-UBD domain: Protein deacetylase HDAC6, ZnF-UBD domain (HDAC6, Homo sapiens, UniProt Q9UBN7)
Chain of UniProt Q9UBN7 (whole entry, looked up): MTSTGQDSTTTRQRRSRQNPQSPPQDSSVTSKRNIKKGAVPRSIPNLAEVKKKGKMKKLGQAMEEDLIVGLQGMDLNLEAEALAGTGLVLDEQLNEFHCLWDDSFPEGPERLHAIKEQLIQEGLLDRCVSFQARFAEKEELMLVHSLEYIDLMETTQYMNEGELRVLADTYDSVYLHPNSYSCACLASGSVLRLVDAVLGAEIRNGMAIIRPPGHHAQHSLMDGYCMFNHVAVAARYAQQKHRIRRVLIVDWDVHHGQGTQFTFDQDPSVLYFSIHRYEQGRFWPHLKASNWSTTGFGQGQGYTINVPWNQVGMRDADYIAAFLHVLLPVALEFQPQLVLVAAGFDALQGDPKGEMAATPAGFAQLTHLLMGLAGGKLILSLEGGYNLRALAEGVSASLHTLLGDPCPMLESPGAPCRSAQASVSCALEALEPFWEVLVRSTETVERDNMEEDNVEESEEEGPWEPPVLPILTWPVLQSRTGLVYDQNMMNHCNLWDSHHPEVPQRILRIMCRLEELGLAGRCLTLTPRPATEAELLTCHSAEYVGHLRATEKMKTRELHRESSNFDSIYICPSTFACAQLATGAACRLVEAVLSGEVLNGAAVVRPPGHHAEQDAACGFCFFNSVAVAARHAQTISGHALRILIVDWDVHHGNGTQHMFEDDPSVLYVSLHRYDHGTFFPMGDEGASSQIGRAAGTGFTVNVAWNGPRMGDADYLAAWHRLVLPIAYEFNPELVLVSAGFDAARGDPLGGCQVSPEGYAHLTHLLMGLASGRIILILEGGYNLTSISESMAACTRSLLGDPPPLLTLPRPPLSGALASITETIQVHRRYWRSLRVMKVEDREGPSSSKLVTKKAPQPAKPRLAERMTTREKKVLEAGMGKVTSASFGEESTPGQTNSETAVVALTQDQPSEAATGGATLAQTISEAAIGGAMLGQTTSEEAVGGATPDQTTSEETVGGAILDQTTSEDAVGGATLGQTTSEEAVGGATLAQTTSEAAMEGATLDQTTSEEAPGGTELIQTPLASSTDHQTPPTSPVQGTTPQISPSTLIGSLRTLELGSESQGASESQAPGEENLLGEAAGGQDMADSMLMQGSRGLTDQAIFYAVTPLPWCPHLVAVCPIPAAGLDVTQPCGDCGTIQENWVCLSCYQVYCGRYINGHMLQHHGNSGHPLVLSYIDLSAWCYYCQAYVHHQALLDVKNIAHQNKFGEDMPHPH
Chain of UniProt Q96GX5 (whole entry, looked up): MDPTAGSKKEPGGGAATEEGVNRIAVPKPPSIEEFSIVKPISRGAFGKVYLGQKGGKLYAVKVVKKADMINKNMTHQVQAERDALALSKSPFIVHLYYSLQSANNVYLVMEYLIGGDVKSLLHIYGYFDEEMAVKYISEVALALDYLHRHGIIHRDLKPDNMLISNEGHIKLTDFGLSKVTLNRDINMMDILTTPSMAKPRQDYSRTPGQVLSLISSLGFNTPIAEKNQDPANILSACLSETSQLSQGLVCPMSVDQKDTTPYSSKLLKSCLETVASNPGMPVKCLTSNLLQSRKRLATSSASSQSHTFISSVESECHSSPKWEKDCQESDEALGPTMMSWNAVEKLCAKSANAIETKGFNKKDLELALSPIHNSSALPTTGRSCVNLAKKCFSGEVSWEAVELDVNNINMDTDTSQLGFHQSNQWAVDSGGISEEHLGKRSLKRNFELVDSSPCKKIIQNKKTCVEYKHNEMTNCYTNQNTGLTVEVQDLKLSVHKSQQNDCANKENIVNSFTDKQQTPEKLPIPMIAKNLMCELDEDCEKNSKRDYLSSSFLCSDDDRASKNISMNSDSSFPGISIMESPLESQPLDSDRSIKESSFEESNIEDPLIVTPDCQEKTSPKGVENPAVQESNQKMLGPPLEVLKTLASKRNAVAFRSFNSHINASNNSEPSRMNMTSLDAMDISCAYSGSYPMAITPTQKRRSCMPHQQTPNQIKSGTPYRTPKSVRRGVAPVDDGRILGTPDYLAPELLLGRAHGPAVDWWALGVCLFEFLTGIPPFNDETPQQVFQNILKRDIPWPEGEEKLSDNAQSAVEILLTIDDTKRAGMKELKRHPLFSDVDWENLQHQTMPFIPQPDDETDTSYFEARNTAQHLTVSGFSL

`CC[S+]([O-])c1nc(-c2ccccc2)cc(C(F)(F)F)n1` (centres unmarked) — result for “cells with nuclear reporter”: 87.4% and 88.4% and 85.4% and 77% (importin alpha/beta-1; cMyc nuclear import, high content imaging; HeLa Kyoto reporter; 0.0158 µM, 2 h).
The MIC90 of `CN[C@H](CC(C)C)C(=O)N[C@H]1C(=O)N[C@@H](CC(N)=O)C(=O)N[C@H]2C(=O)N[C@H]3C(=O)N[C@H](C(=O)N[C@H](C(=O)O)c4cc(O)cc(O)c4-c4cc3ccc4O)[C@H](O)c3ccc(c(Cl)c3)Oc3cc2cc(c3O[C@@H]2O[C@H](CO)[C@@H](O)[C@H](O)[C@H]2O[C@H]2C[C@](C)(N)[C@H](O)[C@H](C)O2)Oc2ccc(cc2Cl)[C@H]1O` is reported as 1 µg/mL (≈ 0.69 µM) (Streptococcus pyogenes; broth microdilution).
`CN1CCC[C@@H]1CCO[C@](C)(c1ccccc1)c1ccc(Cl)cc1` has a Km of 12.1 µM (H+/organic cation antiporter; cell uptake; hCMEC/D3).
The plasma concentration of `CC(C)[C@H](NC(=O)[C@H](Cc1ccc(O)cc1)NC(=O)[C@H](Cc1ccc(O)cc1)NC(=O)[C@@H]1CCCN1C(=O)[C@H](CCC(=O)O)NC(=O)[C@H](CCC(=O)O)NC(=O)[C@H](Cc1c[nH]c2ccccc12)NC(=O)[C@@H]1CCCN1C(=O)[C@@H](NC(=O)[C@H](CCC(N)=O)NC(=O)c1ccc2c(c1)C(=O)OC21c2ccc(O)cc2Oc2cc(O)ccc21)C(C)C)C(=O)N[C@H](C(=O)N[C@@H](CCCCN)C(=O)N[C@@H](CCCCN)C(=O)N[C@@H](CO)C(=O)N[C@@H](CO)C(=O)NCC(=O)NCC(N)=O)C(C)C` is reported as 29500 ng/mL (human, plasma; intravenous infusion, 400 mg, 0.5 h).
The Kd of `O=C(O)CCc1cn2cccnc2n1` is reported as > 1000 µM (HDAC6 ZnF-UBD domain).
`O=C(O)CC[C@H](NC(=O)N[C@@H](CCCCNC(=O)[C@H](Cc1ccc2ccccc2c1)NC(=O)CCCCCNC(=O)CN1CCN(CC(=O)O)CCN(CC(=O)O)CCN(CC(=O)O)CC1)C(=O)O)C(=O)O` [gallium-68 labelled] gave a tissue uptake of 1.84 ± 0.51 %ID/g (gamma counting; mouse, PC-3 xenograft, lung; intravenous, 3.7 MBq, 2 h).
For `O=C(O)CNC(=O)Cc1ccccc1`, the sarcomere length was 1.69 µm (ventricular cardiomyocytes, C57BL/6 mouse; dose not given, 0.616 s).
`CC[C@@H]1[C@H](F)C(=O)N[C@@H]1COc1nccc2cc(C(N)=O)c(OC)cc12` has an inhibition of 16.1% (MASTL (Homo sapiens, UniProt Q96GX5); ATP-site probe binding, inhibitor, ActivX ATP probe profiling; THP-1 cell lysate; 0.01 mM, ATP loop site).
`CCCN1CCCC[C@H]1C(=O)Nc1c(C)cccc1C` has a Km of 50.6 µM (H+/organic cation antiporter; cell uptake; hCMEC/D3).
`NC(=O)c1cnc2[nH]ccc2c1N[C@@H]1[C@@H]2CC3C[C@H]1C[C@@](O)(C3)C2`: “total memory T-cell change” 1.25% (flow cytometry; Caucasian healthy men, blood; oral, 200 mg single dose, 24 h; reference: baseline).
`OC(CCN1CCCCC1)(c1ccccc1)C1CC2C=CC1C2` (centres unmarked) — result for “change in EEG Beta1-power Pz-O1”: -0.2% (resting-state EEG; healthy elderly humans; oral, 2 mg, eyes open, LS mean; reference: baseline).
`COc1cnc2cccc(N3CCc4c(cc(Cn5ccnc5C)cc4-c4cn(C)nc4C(F)(F)F)C3=O)c2c1` gave an EC50 of > 30 µM (769-P; cell growth, inhibitor; 120 h).
`Cn1cc(-c2ccc(-c3cncc(Cl)c3N3CCC4(CCNC4=O)CC3)cc2)cn1` — result for “log2 fold change”: 2.74 (COLO 205; gene expression, microarray, item: NRP1 mRNA; concentration not given, 6 h; reference: untreated cells).
The tissue uptake of `CC(C)C[C@H](NC(=O)C[C@H](O)[C@H](CC(C)C)NC(=O)[C@H](Cc1c[nH]cn1)NC(=O)CNC(=O)[C@@H](NC(=O)[C@H](C)NC(=O)[C@H](Cc1c[nH]c2ccccc12)NC(=O)[C@H](CCC(N)=O)NC(=O)[C@@H](Cc1ccccc1)NC(=O)COCCOCCNC(=O)CCC(C(=O)O)N1CCN(CC(=O)O)CCN(CC(=O)O)CCN(CC(=O)O)CC1)C(C)C)C(N)=O` (some centres unmarked) [lutetium-177 labelled] is reported as 0.05 ± 0.02 %ID/g (female BALB/c nu/nu mice, lung; intravenous, 100 pmol, 24 h, with: PA 300 µg).
The EC50 of `CCn1cc(-c2cc(Cn3ccnc3)cc3c2CCN([C@H](c2cc(OC)ccn2)C2CC2)C3=O)c(C(F)(F)F)n1` is reported as 0.0536 µM (Capan-2; cell growth, inhibitor; 120 h).
`CC(C)NCC(O)COc1ccc(COCCOC(C)C)cc1` (centres unmarked) gave a Km of 93.9 µM (H+/organic cation antiporter; cell uptake; hCMEC/D3).
Under “patients with any adverse event”, `Cc1cc(Nc2ccc(S(F)(F)(F)(F)F)cc2)n2nc(C(C)(F)F)nc2n1` is recorded as 77.7% (Plasmodium vivax; human Plasmodium vivax malaria patients; oral, 600 mg).
`Oc1ccccc1-c1n[nH]cc1-c1ccnc2ccccc12` — result for “log2 fold change”: 0.36 (RIO2 (Candida albicans); kinase binding, MIB/MS competition; Candida albicans lysate; 10 µM; reference: DMSO).
For `CN1C2CCCC1CC(NC(=O)c1nn(C)c3ccccc13)C2` (centres unmarked), the Vmax was 1110 pmol/min/mg protein (H+/organic cation antiporter; cell uptake; hCMEC/D3).
For `c1coc(-c2n[nH]cc2-c2ccnc3ccccc23)c1`, “log2 fold change” read 0.19 (PTK2 (Candida albicans); kinase binding, MIB/MS competition; Candida albicans lysate; 1 µM; reference: DMSO).
For `CC(C)C[C@H](NC(=O)C[C@H](O)[C@H](CC(C)C)NC(=O)[C@H](Cc1c[nH]cn1)NC(=O)CNC(=O)[C@@H](NC(=O)[C@H](C)NC(=O)[C@H](Cc1c[nH]c2ccccc12)NC(=O)[C@H](CCC(N)=O)NC(=O)[C@@H](Cc1ccccc1)NC(=O)COCCOCCNC(=O)CN1CCN(CC(=O)O)CCN(CC(=O)O)CCN(CC(=O)O)CC1)C(C)C)C(N)=O` [lutetium-177 labelled], the tissue uptake was 0.12 ± 0.01 %ID/g (female BALB/c nu/nu mice, bone; intravenous, 50 pmol, 1 h).
`CC(C)NCC(O)c1ccc(O)c(O)c1` (centres unmarked) has a sarcomere length of 1.72 µm (ventricular cardiomyocytes, C57BL/6 mouse; dose not given, 0.624 s).
With `CCn1cc(-c2cc(Cn3ccoc3=N)cc3c2CCN([C@@H](C)c2cc(OC)ccn2)C3=O)c(C(F)(F)F)n1` the EC50 was 0.185 µM (Lu-99; cell growth, inhibitor; 120 h).
`O=C(COP(=O)(O)O)[C@@H](O)[C@H](O)[C@H](O)COP(=O)(O)O` — result for “thermal stability ratio”: 0.493 (Small ribosomal subunit protein mS35 (Homo sapiens, UniProt P82673); thermal proteome profiling, item: MRPS35; HepG2 cell lysate; concentration not given, 57 over 37 °C, mean; reference: compound over control).
`CCCOC(C(=O)OC1CCN(C)CC1)(c1ccccc1)c1ccccc1` has a Vmax of 2680 pmol/min/mg protein (H+/organic cation antiporter; cell uptake; hCMEC/D3).
`CCCCCOc1ccc(-c2ccc(-c3ccc(C(=O)N[C@H]4C[C@@H](O)[C@@H](OCC[N+](C)(C)C)NC(=O)[C@@H]5[C@@H](O)[C@@H](C)CN5C(=O)[C@H]([C@@H](C)O)NC(=O)[C@H]([C@H](O)[C@@H](O)c5ccc(O)cc5)NC(=O)[C@@H]5C[C@@H](O)CN5C(=O)[C@H]([C@@H](C)O)NC4=O)cc3)cc2)cc1`: “total AUC/MIC for 1 log kill” 105 (Candida glabrata; 35315, neutropenic mouse, disseminated candidiasis; dose not given, average 24 h AUC over 7 days).
`O=C(/C=C/C=C/C=C/C1CCCCC1)NC1=C[C@@](O)(/C=C/C=C/C=C/C(=O)NC2=C(O)CCC2=O)[C@@H]2O[C@@H]2C1=O` gave a GI50 of > 30 µM (cck81; cell growth, inhibitor, CellTiter-Glo luminescence; 78 h; reference: day 0 cell count).
`CC1=NN(c2ccccc2)C(=O)C1=NNc1ccc(S(N)(=O)=O)cc1` has a glucose uptake of 28.3% (Saccharomyces cerevisiae; 500 µg/mL).
With `Cc1cccc(C)c1NC(=O)C1CCCCN1C` (centres unmarked) the Km was 137 µM (H+/organic cation antiporter; cell uptake; hCMEC/D3).
`CC1=NNC(=O)C1=NNc1ccc(S(N)(=O)=O)cc1` gave a glucose uptake of 46.4% (Saccharomyces cerevisiae; 100 µg/mL).
With `Cc1cc(OC(C)C)ccc1C(=O)C(C)(C)NC(=O)c1sccc1C` the EC50 was 0.04 µg/mL (Botrytis cinerea; appressorium formation; B05.10; 9 h, 20 °C).
With `CC1=NNC(=S)NC(=O)C1/N=N/c1ccc(S(N)(=O)=O)cc1` (centres unmarked) the glucose uptake was 53.8% (Saccharomyces cerevisiae; 100 µg/mL).
With `O=C(O)CCc1cnn(-c2ccccc2)c1` the Kd was > 1000 µM (HDAC6 ZnF-UBD domain).
`CC1=NN(c2cc(Cl)ccc2Cl)C(=O)C1=NNc1ccc(S(N)(=O)=O)cc1` gave a glucose uptake of 44.891 ± 0.000999% (Saccharomyces cerevisiae; 10 µg/mL).
For `CC(=O)NC[C@H]1CN(c2ccc(N3CCOCC3)c(F)c2)C(=O)O1`, the MBC was 4 µg/mL (≈ 11.9 µM) (Streptococcus pyogenes; broth microdilution).

For quick reference, copied from above:
`CC1=NN(c2ccccc2)C(=O)C1=NNc1ccc(S(N)(=O)=O)cc1` has a glucose uptake of 28.3% (Saccharomyces cerevisiae; 500 µg/mL).
With `Cc1cccc(C)c1NC(=O)C1CCCCN1C` (centres unmarked) the Km was 137 µM (H+/organic cation antiporter; cell uptake; hCMEC/D3).
`CC1=NNC(=O)C1=NNc1ccc(S(N)(=O)=O)cc1` gave a glucose uptake of 46.4% (Saccharomyces cerevisiae; 100 µg/mL).
With `Cc1cc(OC(C)C)ccc1C(=O)C(C)(C)NC(=O)c1sccc1C` the EC50 was 0.04 µg/mL (Botrytis cinerea; appressorium formation; B05.10; 9 h, 20 °C).
